Results collected from several papers.
Each numbered part is a random draw from the data of one study; scales do not carry over between parts. Substitutions count along the parent as printed.

Series 1 — technique: RNA Bind-n-Seq; molecule type: RNA; medium: in vitro; tested at: 15 pmol; setting: 4-mer, random 30-nt RNA, single round; added: DMSO vehicle, 2 mM AMP-PNP; relative to: input library; direction: higher = stronger binding
Target: Eukaryotic initiation factor 4A-I (EIF4A1, Homo sapiens, UniProt P60842, residues 1-406, full length assumed)
Sequence of UniProt P60842 (whole entry, looked up): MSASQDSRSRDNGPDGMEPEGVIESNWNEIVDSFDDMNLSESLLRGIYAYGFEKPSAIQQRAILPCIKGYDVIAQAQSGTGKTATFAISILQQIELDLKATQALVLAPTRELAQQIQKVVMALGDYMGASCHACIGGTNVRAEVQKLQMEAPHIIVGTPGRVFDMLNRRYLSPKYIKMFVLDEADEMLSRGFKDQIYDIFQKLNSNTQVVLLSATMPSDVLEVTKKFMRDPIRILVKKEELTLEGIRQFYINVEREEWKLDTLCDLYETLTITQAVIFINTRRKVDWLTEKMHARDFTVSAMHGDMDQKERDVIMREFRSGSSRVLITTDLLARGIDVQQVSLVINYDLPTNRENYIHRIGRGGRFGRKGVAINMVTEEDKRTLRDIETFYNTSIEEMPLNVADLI
`GCGA` has a 4-mer enrichment of 1.12 fold.
For `AUUG`, the 4-mer enrichment was 0.793 fold.
`UACA` gave a 4-mer enrichment of 0.677 fold.
The 4-mer enrichment of `ACGC` is reported as 1.31 fold.
`GGAU` has a 4-mer enrichment of 0.985 fold.
For `CAGG`, the 4-mer enrichment was 1.5 fold.
The 4-mer enrichment of `GUGC` is reported as 0.879 fold.
With `CGGG` the 4-mer enrichment was 0.746 fold.
The 4-mer enrichment of `UUUC` is reported as 0.904 fold.
The 4-mer enrichment of `CCCA` is reported as 1.23 fold.
`UUAU` has a 4-mer enrichment of 0.852 fold.
For `AAGG`, the 4-mer enrichment was 1.12 fold.
`AUAG` gave a 4-mer enrichment of 0.776 fold.
The 4-mer enrichment of `GAGC` is reported as 1 fold.
`ACCA` has a 4-mer enrichment of 2.6 fold.
For `CAAA`, the 4-mer enrichment was 1.51 fold.
`CAGC` has a 4-mer enrichment of 1.61 fold.
`UUCA` has a 4-mer enrichment of 0.913 fold.
For `AGCG`, the 4-mer enrichment was 1.02 fold.
With `UUUA` the 4-mer enrichment was 0.881 fold.
`CCAU` gave a 4-mer enrichment of 1.59 fold.

Series 2 — technique: RNA Bind-n-Seq; molecule type: RNA; medium: in vitro; tested at: 365 nM; relative to: no-protein control; direction: higher = stronger binding
Target: RNA binding protein fox-1 homolog 2, RRM domain, GST-SBP tag (RBFOX2, Homo sapiens, UniProt O43251-10, residues 100-194)
Setting: natural RNA segment, single round, ends assumed
All sequences stand within: GGGAGUUCUACAGUCCGACGAUC … UGGAAUUCUCGGGUGCCAA
Residues (chain): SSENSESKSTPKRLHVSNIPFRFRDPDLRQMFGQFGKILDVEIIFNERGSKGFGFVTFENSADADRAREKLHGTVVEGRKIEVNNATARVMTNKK
For `GUGCAGAACGUCUGGAUGGACACCCAUCAUGCAUCAGUGCAAUAGAGUCUAGUAAGUGUCUCUAGCCAGGCUUGUCAGUUGUGCAGGAAACAAGGCCUGGUCCUAGCAAA`, “RBNS enrichment (R)” read 1.42.
Under “RBNS enrichment (R)”, `UCUGUGUCCUACAUAGAGCAGCAACUUUAUCUGCGGUGGGCUCCAAGCUAGAUUUCCGACAGCAUUAUUCUGAGAGCUGGCUACCAUUACCCUUCUUGCUAUUGGAAACU` is recorded as 6.3.
`GGCUCAGAUCUGUCCAAGGGCGGAGGCAGGUGGUAUUGAAAAGGAAACGAAUCCUUGAGAGGAGCACUGUCCCGUCCCUUGCUCCUUAUGGCUGGUCCUCCUUCUUGCUC` — result for “RBNS enrichment (R)”: 0.375.
`GGCUGAGGGGGAGCUGCGUCUUGCUAGGGCUUCCCCCUUCUCCCCAUCCCGGUCUCCAGAGACCCAGCUUCUGAGAGACAGGGUGUGGGCAUCUCCAUGCCCCUAUAAAG`: “RBNS enrichment (R)” 1.48.
`CGAGGAGAACUGAGACUCUGCCUUACCACCGCAGUGCGGGGCACCUCUCCCAGCGUUUCUCCGGUUUGCCAAUCCUCUUAAGUAUUCCUGUCUCCAAAGGACCGGCUCUC`: “RBNS enrichment (R)” 0.196.
Under “RBNS enrichment (R)”, `GAGUUGGAGAGAGGUGGGUCCUAUUGUAACAACCGCUAUAAUUUAUAUGGACUAUAUUGUCUCCCUGUCCUUGUUCUGAUAAUGUACAGACUCAGUUUUUCUUAUGUUAU` is recorded as 0.641.
`AGAUGCAUGAGACAAGAUGGAUUGCGAGCAAUUAGUGGAUGUGUGCACUUUUUGUUCAGAGUUUAAGGCUAGGAUAUUGGUUUUUCCCACUGACUGAGCUGUCCUGCAAA` — result for “RBNS enrichment (R)”: 16.3.
For `UGUAUGUAUCAUAUGUUUGUUCAUCAAAGCUUUUUAAUCCAAAUAAAAACAACAGUUUGCAAAGUGAUUUGGAUCAGCCAGGUUUGGUGGUUCUGUUUAAAGUGUGUCAA`, “RBNS enrichment (R)” read 2.08.

Series 3 — technique: RNA Bind-n-Seq; molecule type: RNA; medium: in vitro; tested at: 100 nM; relative to: input RNA pool; direction: higher = stronger binding
Target: RING finger protein unkempt homolog, zinc fingers 1-6, SBP tag (UNK, Homo sapiens, UniProt Q9C0B0, residues 30-357)
Sequence of UniProt Q9C0B0 (30-357, looked up): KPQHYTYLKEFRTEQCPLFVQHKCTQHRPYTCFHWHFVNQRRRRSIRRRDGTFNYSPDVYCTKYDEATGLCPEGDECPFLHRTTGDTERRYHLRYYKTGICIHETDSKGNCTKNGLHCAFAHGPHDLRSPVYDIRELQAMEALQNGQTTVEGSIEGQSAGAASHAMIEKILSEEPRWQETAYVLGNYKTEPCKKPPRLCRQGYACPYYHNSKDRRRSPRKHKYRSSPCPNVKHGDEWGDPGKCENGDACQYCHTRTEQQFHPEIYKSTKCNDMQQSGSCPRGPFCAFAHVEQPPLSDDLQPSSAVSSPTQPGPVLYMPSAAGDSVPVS
Setting: RNA with constant flanks, vertebrate orthologous sites, ends assumed
All sequences stand within: GGGAGUUCUACAGUCCGACGAUC … CAACAGAGGAUUGAGCAUCA
`AGCCACCCAAGGAUUCAGGACUGGUUUUACAAAUAUGCCAAGUAGAUAUGGAACUAACAAUAGAAUUGGACAACCAAGACCAUAAGGUACUCUAAUUUACUUUAAUUUAUUUUAUGAGGA` has a bound/input enrichment of 0.563 ratio.
`GCAAAUCCAGUCACUGUGAUAUUUAAAAUAUGCACAGUCCUCAUUCUUUCUCCAUGAUCCUAGUAUUUUUCUAGCUGUAUCUUUGUAUCUCAUACUGUUAUUUAUCAGUUUUGUUCCCCU` gave a bound/input enrichment of 0.897 ratio.
For `UUCAGGCACAACUGACAGGUUCACAGCAUUCCUUACCUAGUUAUUUUUCAAAUGCAAGUGUAGCUGAUUUUCAGGAUACAACCAGGCAGCCAUCUUUAUCUUGUAACCCAAUUGGAGAUU`, the bound/input enrichment was 2.96 ratio.
The bound/input enrichment of `CUACUAUAAACAACUCAGGGCAGUAUUCUCGAUAUCCUUACAGUAACCUAAAUCAGGGAUUAGUUAACAAUACAGGGAUGAAUCAAAAUUUAGGCCUUACAAAUAACACUCCAAUGAAUC` is reported as 1.51 ratio.
The bound/input enrichment of `CAUGCACAUGACACUACCACCAAAAGCAAACACCUUUUUCAAAUUCAUUAAUAGCAUUUUUAGAAUUCCUUCCUUUCCUUCUGUUCCCCUAAUGCUUUAAACUAUUAGAAGUCCUGGUUC` is reported as 2.74 ratio.
For `UUGGGACCAGCUCACCAAAUAGGAAUAAUAGUAAAAAAUAUAAACAAAAUGAUAUUUGUAUAGAAAAGACAGACGCUAAAUCAUGCAAGAUAAAUGCUGCCAGUGUUCAAGGCUCUAAAG`, the bound/input enrichment was 4.75 ratio.
With `UUCUCUGAGCGGCAGCCUUCCGUCUGUGGCCGACUCGCACUCCAGCCACUUCUCAGAGUUCAGCUGCUCUGACCUGGACGCCUGCAGACCUACAUGCUACGAGUCUCACAUCCGCCAUCC` the bound/input enrichment was 0.484 ratio.
With `UCCCAGCACUUUGAUAAAAAGCGUGGACUGGUUGCUCGUAUUUUCCUUAUUCUUUUUAAUUAGUUUUAUUAUGUAUGCUACCAUUCGAACUGAGAGUAUUCGGUGGCUAAUUCCAGGACA` the bound/input enrichment was 3.23 ratio.

Series 4 — target: CCND3, cyclin fold, Cln2 fusion (human); technique: yeast growth competition, sequencing; medium: yeast; setting: weak parent motif; relative to: not given; direction: higher = stronger binding
Starting sequence: PKMYT1 docking peptide (human); SFEPRNLLSLFED
For `SFEPRNLLSMFED [L10M]`, “normalised enrichment score” read 0.0677.
`STEPRNLLSLFED [F2T]`: “normalised enrichment score” 0.167.
`SFEPRNLLDLFED [S9D]` — result for “normalised enrichment score”: 0.0692.
`SFEPRNLLSLSED [F11S]`: “normalised enrichment score” 0.134.
For `TFEPRNLLSLFED [S1T]`, “normalised enrichment score” read 0.0977.
For `SFEPWNLLSLFED [R5W]`, “normalised enrichment score” read 0.1.
Under “normalised enrichment score”, `SFEPRNGLSLFED [L7G]` is recorded as 0.112.
For `SFENRNLLSLFED [P4N]`, “normalised enrichment score” read 0.13.
`SFEPRWLLSLFED [N6W]`: “normalised enrichment score” 0.157.
`SFEDRNLLSLFED [P4D]` — result for “normalised enrichment score”: 0.0872.
For `SFVPRNLLSLFED [E3V]`, “normalised enrichment score” read 0.12.
Under “normalised enrichment score”, `SFEPRNLLSWFED [L10W]` is recorded as 0.151.
`SFEPRNLLQLFED [S9Q]`: “normalised enrichment score” 0.0797.
For `SFEPRNLLSLFEH [D13H]`, “normalised enrichment score” read -0.025.
For `SFQPRNLLSLFED [E3Q]`, “normalised enrichment score” read 0.0643.
For `SFEPRNLLSLFPD [E12P]`, “normalised enrichment score” read 0.0818.
Under “normalised enrichment score”, `SWEPRNLLSLFED [F2W]` is recorded as -0.00728.
Under “normalised enrichment score”, `SFEPRNKLSLFED [L7K]` is recorded as 0.134.
For `SFEPENLLSLFED [R5E]`, “normalised enrichment score” read 0.101.
Under “normalised enrichment score”, `SFEPRNLLSLFEF [D13F]` is recorded as 0.111.
For `SFEERNLLSLFED [P4E]`, “normalised enrichment score” read 0.122.
For `SFDPRNLLSLFED [E3D]`, “normalised enrichment score” read 0.101.
`IFEPRNLLSLFED [S1I]`: “normalised enrichment score” 0.0221.
`SFEPRNLLSLFAD [E12A]`: “normalised enrichment score” 0.0948.
`SFEPRNLLSLFEI [D13I]`: “normalised enrichment score” 0.09.
